Measurements of several laboratories.
Compare with care: the assays were run in different laboratories. Values joined by “and” are separate records of one study, mostly repeats; a detail may differ. Numbers after ± are the reported error. In brackets after ≈: the same amount, converted by molar mass.

`O=C([O-])CN1CCN(CC(=O)[O-])CCN(CC(CCCc2ccccc2[N+](=O)[O-])N(CC(=O)[O-])CC(=O)[O-])CC1.[177Lu+3]` (stereo not shown): “intact radiolabelled complex” 100 ± 0.1% (TLC; human serum; 0 h, pH 7, 37 °C).
`Cc1ccc(OCC(=O)N(Cc2cccs2)c2ccn[nH]2)cc1` gave a remaining compound of 33.9% (pooled human liver microsomes; 10 µM, 20 min; relative to: time 0).
With `C=C[C@]1(C)C[C@@H](OC(=O)CSc2ccc(NC(=O)c3ccco3)cc2)[C@]2(C)[C@H](C)CC[C@]3(CCC(=O)[C@H]32)[C@@H](C)[C@@H]1O` the plasma concentration was 49.7 ng/mL and 106 ng/mL and 76.6 ng/mL and 155 ng/mL and 76.5 ng/mL and 72.9 ng/mL and 139 ng/mL and 117 ng/mL (Mycoplasma gallisepticum-infected chickens, plasma; intramuscular, 80 mg/kg, 12 h).
`C=C(NC(=O)c1csc(-c2nc3c(cc2O)-c2nc(cs2)C(=O)NC(C(C)O)C(=O)NC(=C(C)OC)c2nc(cs2)C(=O)NC2c4nc(cs4)C(=O)NC(COC(=O)c4c5c6c(cccc6n4O)COC(=O)C(OC4CC(C)(O)C(N(C)C)C(C)O4)C2OC5)c2nc-3cs2)n1)C(N)=O` (stereo not shown) gave an AUC(0-t) of 0.036 µM·h (ICR mice, Streptococcus pneumoniae ATCC 49169 infected, immunocompromised, blood; intravenous, 2 mg/kg once daily).
`OC1(C(F)(F)F)CCN(c2nc(Nc3ccnc(C(F)(F)F)c3)nc(-c3cccc(C(F)(F)F)n3)n2)C1` (stereo not shown) has an MRT(0-inf) of 19.9 ± 3.14 h (monkey, blood; oral, 1 mg/kg).
The SUV of `O=C(Nc1cnccc1-c1ccc([18F])nc1)c1ccnc(NC(=O)C2CC2)c1` is reported as 0.093 (ex vivo gamma counting; FVB/NJ mice, both sexes, cerebellum; intravenous, 120 min, mean, P-gp inhibitor pretreatment, together with: tariquidar 15 mg/kg iv).
The plasma concentration of `Cc1noc(C)c1Cn1cc(N2C(=O)CN(Cc3cccc(OS(=O)(=O)O)c3)C2=O)cn1` is reported as 324 ng/mL (Sprague-Dawley rat, male; oral, 100 mg/kg of parent drug, 24 h).
`CN1CCC[C@]1(C)/C=C/S(=O)(=O)NC(=O)Nc1c2c(cc3c1CCC3)CCC2`: “subjects with adverse event” 16.7% (item: nasopharyngitis, not related; human; oral, 50 mg twice daily, 14 days, multiple ascending dose).
For `C=CC(=O)Nc1cc(Nc2nccc(-c3c[nH]c4ccccc34)n2)c(OC)cc1N(C)CCN(C)C`, the recovery was 99.6% (storage stability; human plasma; 2 h, on ice, LLOQ level).
With `COc1ccc(C([O-])=CC(=O)c2ccc(C(C)(C)C)cc2)cc1.[Ru+2].c1ccc(-c2ccccn2)nc1.c1ccc(-c2ccccn2)nc1` the toxicity was 100% (zebrafish larvae; 10 µM).
The solubility of `CN(C)S(=O)(=O)c1ccc(S(=O)(=O)N2CCC(n3c(=O)[nH]c4ccccc43)CC2)cc1` is reported as 10 µg/mL (≈ 21.5 µM) (HPLC; Capmul MCM; 24 h, 20 °C).
`Cc1cc(-c2ccc(C(=O)[C@@H]3CCCC[C@H]3C(=O)Nc3cnn4c3C(=O)NCC4)cc2)[nH]n1` — result for “recovery of radioactivity per interval”: 11.3% (human, faeces; oral, 200 mg, 72-96 h; relative to: dose).
For `CC[C@H](C)[C@@H]1NC(=O)[C@H](Cc2ccc(O)cc2)NC(=O)CCCSC[C@@H](C(=O)N(CC(=O)N[C@@H](CC(C)C)C(=O)NCC(N)=O)Cc2ccc(F)cc2)NC(=O)[C@H](CC(N)=O)NC(=O)[C@H](CCC(N)=O)NC1=O`, “subjects with any TEAE” read 50% (human; intranasal, 5 µg single dose).
Under “tumour-to-small intestine ratio”, `COc1cccc(OC)c1-c1cc(C(=O)NC2(C(=O)O)C3CC4CC(C3)CC2C4)nn1-c1ccc(C(=O)N(C)CCOCCOCCN(C)C(=O)[C@H](CCCCNC(=O)[C@H](CC(C)C)NC(=O)C2OC2C(=O)O)NC(=O)CN2CCN(CC(=O)[O-])CCN(CC(=O)[O-])CCN(CC(=O)[O-])CC2)cc1C(C)C.[177Lu+3]` (mixture of isomers) is recorded as 12.2 (mouse HT-29 xenograft; 24 h, biodistribution; relative to: tumour over small intestine).
For `CC(=O)N[C@@H](CCCCN)C(=O)N[C@H](C(=O)N[C@@H](Cc1ccc(O)cc1)C(=O)N[C@@H](Cc1ccc(O)cc1)C(=O)N[C@@H](CCCNC(=N)N)C(=O)N[C@@H](Cc1ccc(O)cc1)C(=O)N[C@@H](CC(N)=O)C(=O)NCC(=O)N[C@@H](CCCCN)C(=O)N[C@H](C(=O)N[C@@H](Cc1c[nH]c2ccccc12)C(=O)N[C@@H](Cc1c[nH]c2ccccc12)C(=O)N[C@@H](CCCNC(=N)N)C(=O)O)C(C)C)C(C)C`, the α-helix content was 11.3% (circular dichroism; free peptide in solution; concentration not given, 25 °C, no insulin present).
For `O=C(c1ccccc1)N1C(c2ccc(OCC3CCN(CCCF)C3)cc2)c2ccc(O)cc2CC12CC2` (stereo not shown), “AUC extrapolated percentage” read 0.333% (C57BL/6J mice, plasma; intraperitoneal, 25 mg/kg).
`CCCCN1C(=O)c2cccc3c(NCCN4CCOCC4)ccc(c23)C1=O`: “fluorescence quantum yield” 0.02 (DMF).
`COc1cccc(OC)c1-c1cc(C(=O)NC2(C(=O)O)C3CC4CC(C3)CC2C4)nn1-c1ccc(C(=O)N(C)CCCN(C)CCCN(C)C(=O)[C@H](CCCCNC(=O)[C@H](CC(C)C)NC(=O)C2OC2C(=O)O)NC(=O)CN2CCN(CC(=O)[O-])CCN(CC(=O)[O-])CCN(CC(=O)[O-])CC2)cc1C(C)C.[177Lu+3]` (mixture of isomers) gave a tumour-to-lung ratio of 22.7 (mouse, HT-29 xenograft; 72 h post injection, biodistribution; relative to: tumour over lung uptake).
For `C/C(N)=N/C(=N\S(=O)(=O)c1ccc(C(F)(F)F)cc1)N1C[C@H](c2ccccc2)C(c2ccc(Cl)cc2)=N1`, the tissue/plasma ratio was 10 (C57BL/6 mouse, male, liver; intravenous, 10 mg/kg; relative to: liver over plasma).
For `CC(=O)N([O-])CCCCCNC(=O)CCC(=O)N([O-])CCCCCNC(=O)CCC(=O)N([O-])CCCCCN.[89Zr+4]`, the intact complex was 96.4 ± 1.4% (radio-TLC; aqueous buffer; 7 d, pH 7.2, 37 °C, 89Zr-labelled complex, together with: CoCl2 10-fold excess).
For `Nc1nc2cnc(C(=O)N3CCOC[C@@H]3c3ccc(C(F)(F)F)cc3)cc2c2c1COC2`, the fraction unbound was 0.083 (dog, plasma).
`CC(C)(O)c1ncc([S@](N)(=O)=NC(=O)Nc2c3c(cc4c2CCC4)CCC3)s1` gave a storage stability of at least 269 days (human plasma; -20 °C or below).
The zeta potential of `CCCCC/C=C\CCCO[Si](CCCCCN(C)C)(OCCC/C=C\CCCCC)OCCC/C=C\CCCCC` is reported as 2.87 mV (pH 5.5, formulated).
With `Nc1nonc1-c1nnc2c(n1)-c1ccccc1C2=O` the AUC was 13.1 ± 0.85 µM·h (ICR mice, plasma; intraperitoneal, 30 mg/kg).
For `CCc1cnc(NC(=O)c2cc(S(=O)(=O)N3CCOCC3)ccc2N(C)C2CCCC2)s1`, “Neutrophils absolute count” read 1480 µL⁻¹ (mouse, blood; 10 mg/kg, 3 doses).

A few entries again:
For `CC(=O)N([O-])CCCCCNC(=O)CCC(=O)N([O-])CCCCCNC(=O)CCC(=O)N([O-])CCCCCN.[89Zr+4]`, the intact complex was 96.4 ± 1.4% (radio-TLC; aqueous buffer; 7 d, pH 7.2, 37 °C, 89Zr-labelled complex, together with: CoCl2 10-fold excess).
For `Nc1nc2cnc(C(=O)N3CCOC[C@@H]3c3ccc(C(F)(F)F)cc3)cc2c2c1COC2`, the fraction unbound was 0.083 (dog, plasma).
